Results pooled from the literature.
Numbered parts are unrelated; each lists some results of a single study. Positions count from the first letter of the parent shown.
Sequence of UniProt O43318 (whole entry, looked up): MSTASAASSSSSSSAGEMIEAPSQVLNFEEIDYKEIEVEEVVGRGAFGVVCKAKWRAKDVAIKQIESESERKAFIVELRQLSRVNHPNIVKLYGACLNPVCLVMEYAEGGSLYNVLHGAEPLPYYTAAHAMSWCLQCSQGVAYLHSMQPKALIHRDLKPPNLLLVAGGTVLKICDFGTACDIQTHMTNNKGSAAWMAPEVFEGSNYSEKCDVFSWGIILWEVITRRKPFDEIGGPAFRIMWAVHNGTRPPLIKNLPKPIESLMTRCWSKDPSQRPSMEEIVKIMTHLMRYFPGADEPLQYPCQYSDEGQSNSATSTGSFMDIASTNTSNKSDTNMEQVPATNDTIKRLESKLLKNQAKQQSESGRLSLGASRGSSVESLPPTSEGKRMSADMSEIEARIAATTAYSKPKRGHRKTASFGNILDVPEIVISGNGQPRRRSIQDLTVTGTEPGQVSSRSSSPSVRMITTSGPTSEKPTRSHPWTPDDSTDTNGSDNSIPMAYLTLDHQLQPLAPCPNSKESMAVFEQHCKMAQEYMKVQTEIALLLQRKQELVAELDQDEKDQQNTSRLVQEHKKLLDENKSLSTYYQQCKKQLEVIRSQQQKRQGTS
Sequence of UniProt Q56UN5 (whole entry, looked up): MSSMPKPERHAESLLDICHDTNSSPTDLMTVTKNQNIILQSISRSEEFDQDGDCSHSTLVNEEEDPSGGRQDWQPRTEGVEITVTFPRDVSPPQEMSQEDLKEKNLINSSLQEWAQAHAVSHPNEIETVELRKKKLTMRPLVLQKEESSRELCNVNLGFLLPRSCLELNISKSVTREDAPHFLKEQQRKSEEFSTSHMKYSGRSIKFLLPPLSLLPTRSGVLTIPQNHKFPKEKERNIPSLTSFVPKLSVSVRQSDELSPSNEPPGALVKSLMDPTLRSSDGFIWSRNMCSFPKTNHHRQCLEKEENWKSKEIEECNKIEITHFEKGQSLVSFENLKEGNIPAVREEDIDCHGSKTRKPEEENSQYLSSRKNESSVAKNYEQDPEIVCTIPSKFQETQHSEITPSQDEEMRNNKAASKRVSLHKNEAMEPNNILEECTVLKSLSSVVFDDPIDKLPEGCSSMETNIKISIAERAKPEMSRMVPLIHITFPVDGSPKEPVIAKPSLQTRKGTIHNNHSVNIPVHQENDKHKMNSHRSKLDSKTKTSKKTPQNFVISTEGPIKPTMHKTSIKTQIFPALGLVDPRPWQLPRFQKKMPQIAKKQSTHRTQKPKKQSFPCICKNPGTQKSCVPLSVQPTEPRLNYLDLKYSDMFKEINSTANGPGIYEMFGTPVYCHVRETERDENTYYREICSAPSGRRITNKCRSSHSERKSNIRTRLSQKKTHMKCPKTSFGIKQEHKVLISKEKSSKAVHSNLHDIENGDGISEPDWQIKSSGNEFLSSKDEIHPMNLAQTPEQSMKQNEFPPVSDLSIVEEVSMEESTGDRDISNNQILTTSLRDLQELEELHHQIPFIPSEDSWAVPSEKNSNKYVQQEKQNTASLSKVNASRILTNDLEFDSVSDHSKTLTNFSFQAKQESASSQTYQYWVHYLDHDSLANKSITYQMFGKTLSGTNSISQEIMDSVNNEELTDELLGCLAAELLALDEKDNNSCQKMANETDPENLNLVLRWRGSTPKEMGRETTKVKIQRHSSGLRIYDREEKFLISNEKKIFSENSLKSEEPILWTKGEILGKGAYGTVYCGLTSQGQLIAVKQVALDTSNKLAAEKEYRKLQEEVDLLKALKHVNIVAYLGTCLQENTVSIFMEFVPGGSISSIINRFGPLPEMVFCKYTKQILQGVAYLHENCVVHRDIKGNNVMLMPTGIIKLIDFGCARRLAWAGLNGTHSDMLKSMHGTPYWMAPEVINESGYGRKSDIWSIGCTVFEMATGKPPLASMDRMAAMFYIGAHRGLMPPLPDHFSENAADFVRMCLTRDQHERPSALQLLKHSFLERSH
Sequence of UniProt P42336 (whole entry, unmodified, looked up): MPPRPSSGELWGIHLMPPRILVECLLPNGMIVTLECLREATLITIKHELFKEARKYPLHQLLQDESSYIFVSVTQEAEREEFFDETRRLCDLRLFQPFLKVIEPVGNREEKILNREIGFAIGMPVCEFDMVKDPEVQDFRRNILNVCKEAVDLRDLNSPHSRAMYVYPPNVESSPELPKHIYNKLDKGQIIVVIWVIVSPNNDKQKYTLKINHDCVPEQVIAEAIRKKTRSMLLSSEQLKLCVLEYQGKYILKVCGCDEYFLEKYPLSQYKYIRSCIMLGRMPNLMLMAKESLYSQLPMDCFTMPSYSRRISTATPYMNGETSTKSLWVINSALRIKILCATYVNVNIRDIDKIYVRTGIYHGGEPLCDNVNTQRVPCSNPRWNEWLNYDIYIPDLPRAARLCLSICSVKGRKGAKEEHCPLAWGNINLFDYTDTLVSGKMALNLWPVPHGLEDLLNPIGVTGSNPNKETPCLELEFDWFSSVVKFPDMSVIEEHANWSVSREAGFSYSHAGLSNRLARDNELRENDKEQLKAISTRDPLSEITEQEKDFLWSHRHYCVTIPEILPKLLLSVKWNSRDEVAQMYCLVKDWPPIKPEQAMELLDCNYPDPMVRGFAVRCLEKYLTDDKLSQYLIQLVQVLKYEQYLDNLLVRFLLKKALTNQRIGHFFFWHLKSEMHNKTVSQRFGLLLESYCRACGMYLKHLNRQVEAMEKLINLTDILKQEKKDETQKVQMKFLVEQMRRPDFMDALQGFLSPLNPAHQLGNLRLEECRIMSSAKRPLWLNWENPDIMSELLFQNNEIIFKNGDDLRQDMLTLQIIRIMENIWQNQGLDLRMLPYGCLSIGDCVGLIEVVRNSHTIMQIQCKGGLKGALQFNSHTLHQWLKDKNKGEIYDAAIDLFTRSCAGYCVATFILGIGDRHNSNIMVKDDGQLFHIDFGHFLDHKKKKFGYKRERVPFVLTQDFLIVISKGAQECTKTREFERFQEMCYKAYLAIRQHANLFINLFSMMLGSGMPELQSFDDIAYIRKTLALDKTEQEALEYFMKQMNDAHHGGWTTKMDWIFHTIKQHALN
Sequence of UniProt Q7L7X3 (whole entry, looked up): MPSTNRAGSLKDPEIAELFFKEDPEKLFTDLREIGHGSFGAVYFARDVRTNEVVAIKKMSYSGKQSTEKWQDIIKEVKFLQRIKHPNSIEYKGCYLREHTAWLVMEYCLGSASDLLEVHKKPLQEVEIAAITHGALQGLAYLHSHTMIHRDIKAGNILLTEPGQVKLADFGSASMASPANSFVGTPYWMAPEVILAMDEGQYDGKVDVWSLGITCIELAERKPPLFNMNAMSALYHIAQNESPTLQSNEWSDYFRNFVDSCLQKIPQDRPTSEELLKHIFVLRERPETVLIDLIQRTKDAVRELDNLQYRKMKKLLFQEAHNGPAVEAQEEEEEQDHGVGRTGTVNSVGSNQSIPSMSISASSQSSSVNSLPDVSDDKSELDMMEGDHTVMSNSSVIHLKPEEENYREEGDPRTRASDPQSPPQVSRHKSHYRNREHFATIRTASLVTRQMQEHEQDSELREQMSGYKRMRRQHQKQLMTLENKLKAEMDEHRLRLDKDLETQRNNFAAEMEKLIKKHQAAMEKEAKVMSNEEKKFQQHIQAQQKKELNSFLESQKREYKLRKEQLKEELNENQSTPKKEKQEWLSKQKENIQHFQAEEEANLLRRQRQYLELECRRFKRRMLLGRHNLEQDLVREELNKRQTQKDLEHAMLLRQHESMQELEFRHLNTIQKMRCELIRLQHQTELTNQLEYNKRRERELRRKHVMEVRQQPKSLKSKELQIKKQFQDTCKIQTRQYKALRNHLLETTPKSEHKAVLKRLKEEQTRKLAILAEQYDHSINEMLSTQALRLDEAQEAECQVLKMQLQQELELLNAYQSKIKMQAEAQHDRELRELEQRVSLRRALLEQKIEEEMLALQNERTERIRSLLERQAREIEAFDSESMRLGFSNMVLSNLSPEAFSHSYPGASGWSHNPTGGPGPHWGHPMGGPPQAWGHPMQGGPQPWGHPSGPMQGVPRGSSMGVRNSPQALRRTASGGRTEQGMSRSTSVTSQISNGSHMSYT

Study 1 — effect on: cell-free assay; method: competition with immobilised ligand; concentration: 0.1 µM
SMILES: Cn1cc(Cl)c2c(Oc3c(F)cc(Nc4cc(Cl)nc(N)n4)cc3F)ccnc21
| target | remaining binding [%] |
| --- | --- |
| EPHA1 (Homo sapiens, UniProt P21709) | 100 |
| Tyrosine-protein kinase ABL1, phosphorylated (ABL1, Homo sapiens, UniProt P00519, M351T) | 90 |
| ROCK1 (Homo sapiens, UniProt Q13464) | 76 |
| PIK3CA (Homo sapiens, UniProt P42336, I800L) | 82 |
| MAPK14 (Homo sapiens, UniProt Q16539) | 100 |
| TAOK1 (Homo sapiens, UniProt Q7L7X3) | 97 |
| STK3 (Homo sapiens, UniProt Q13188) | 92 |
| MAP3K7 (Homo sapiens, UniProt O43318) | 100 |
| MAP3K19 (Homo sapiens, UniProt Q56UN5) | 75 |
| HIPK2 (Homo sapiens, UniProt Q9H2X6) | 100 |
| MST1R (Homo sapiens, UniProt Q04912) | 87 |
| CDC42BPB (Homo sapiens, UniProt Q9Y5S2) | 100 |

Study 2 — target: CCNE1, cyclin fold, Cln2 fusion (human); method: yeast growth competition, sequencing; medium: yeast; setting: strong parent motif; baseline: not given; reading: higher = stronger binding
Starting sequence: E2F1 docking peptide (human); PPVKRRLDLETDH
| Change | normalised enrichment score |
| --- | --- |
| PPVKNRLDLETDH [R5N] | 0.491 |
| PPVKARADLETDH [R5A L7A] | -0.381 |
| PPVNRRLDLETDH [K4N] | 0.717 |
| PPVMRRLDLETDH [K4M] | 1.85 |
| PPVDRRLDLETDH [K4D] | -0.181 |
| PPVKRSLDLETDH [R6S] | -0.226 |
| PAVKRRLDLETDH [P2A] | 0.994 |
| RPVKRRLDLETDH [P1R] | 1 |

Study 3 — method: universal PBM; form: double-stranded DNA, one strand shown; medium: in vitro; concentration: 600 nM; reading: higher = stronger binding
Target: Sal-like protein 4, full length isoform A (SALL4, Homo sapiens, UniProt Q9UJQ4, residues 1-1053)
Sequence of UniProt Q9UJQ4 (whole entry, looked up): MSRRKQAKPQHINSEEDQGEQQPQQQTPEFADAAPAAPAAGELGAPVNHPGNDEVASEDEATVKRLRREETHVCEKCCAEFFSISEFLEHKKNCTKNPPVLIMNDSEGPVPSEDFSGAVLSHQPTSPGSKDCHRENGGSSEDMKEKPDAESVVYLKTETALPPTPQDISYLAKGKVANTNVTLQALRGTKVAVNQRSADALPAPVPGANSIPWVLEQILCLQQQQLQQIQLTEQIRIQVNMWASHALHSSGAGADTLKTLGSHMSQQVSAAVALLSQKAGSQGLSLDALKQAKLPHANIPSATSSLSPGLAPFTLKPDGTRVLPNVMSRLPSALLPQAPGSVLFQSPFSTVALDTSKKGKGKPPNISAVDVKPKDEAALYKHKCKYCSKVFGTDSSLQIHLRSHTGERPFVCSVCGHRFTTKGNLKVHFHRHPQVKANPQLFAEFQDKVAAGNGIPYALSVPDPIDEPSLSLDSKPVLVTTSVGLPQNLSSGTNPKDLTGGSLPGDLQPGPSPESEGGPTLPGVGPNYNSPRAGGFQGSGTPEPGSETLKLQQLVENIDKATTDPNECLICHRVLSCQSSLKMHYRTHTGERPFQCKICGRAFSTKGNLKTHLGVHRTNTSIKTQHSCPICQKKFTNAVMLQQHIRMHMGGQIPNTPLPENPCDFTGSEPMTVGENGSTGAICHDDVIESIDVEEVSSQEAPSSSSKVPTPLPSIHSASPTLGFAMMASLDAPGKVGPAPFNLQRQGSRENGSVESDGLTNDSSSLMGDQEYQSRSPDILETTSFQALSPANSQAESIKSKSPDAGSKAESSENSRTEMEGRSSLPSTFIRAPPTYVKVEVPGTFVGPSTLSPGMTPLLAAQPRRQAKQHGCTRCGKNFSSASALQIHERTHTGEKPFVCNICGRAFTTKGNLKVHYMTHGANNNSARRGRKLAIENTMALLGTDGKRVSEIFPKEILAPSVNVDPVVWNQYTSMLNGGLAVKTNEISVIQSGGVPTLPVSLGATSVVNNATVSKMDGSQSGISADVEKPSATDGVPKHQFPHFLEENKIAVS
Setting: 8-mer, flanks averaged, mean of replicates
| Strand | E-score |
| --- | --- |
| AGCAAACA | 0.0275 |
| AGTGACTA | 0.0541 |
| ATAGAGAA | 0.19 |
| GACGAGTC | -0.188 |
| AAATTCAG | 0.181 |
| ACACTTAC | 0.155 |
| CCCACTTA | 0.107 |
| AGGCAACG | -0.316 |

Study 4 — method: RNAcompete; form: RNA; medium: in vitro; concentration: 20 nM; setting: 7-mer, probes averaged, single round; baseline: mean of 7-mers; reading: higher = stronger binding
Target: PABPC1L2, full length, GST fusion (mouse, UniProt A0ABA7IW68)
Residues (chain): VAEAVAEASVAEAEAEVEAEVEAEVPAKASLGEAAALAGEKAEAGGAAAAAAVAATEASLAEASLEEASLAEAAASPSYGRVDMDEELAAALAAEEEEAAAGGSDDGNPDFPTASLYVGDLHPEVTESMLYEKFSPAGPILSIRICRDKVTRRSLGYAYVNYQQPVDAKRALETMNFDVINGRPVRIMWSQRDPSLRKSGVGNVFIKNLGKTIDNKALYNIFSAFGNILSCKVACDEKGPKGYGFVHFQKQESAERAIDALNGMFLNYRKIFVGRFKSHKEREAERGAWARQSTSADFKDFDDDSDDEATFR
| Strand | 7-mer Z-score |
| --- | --- |
| CCUCUAA | -0.199 |
| CUUAUAC | -0.32 |
| GACUGGU | -0.238 |
| GCAUCAA | -0.0736 |
| AAAUAAG | 2.88 |
| AUACUCA | -0.133 |
| UCGGGCA | 0.0207 |
| CUCGGGG | -0.0953 |

For quick reference, copied from above (study 2):
| Change | normalised enrichment score |
| --- | --- |
| PAVKRRLDLETDH [P2A] | 0.994 |
| PPVMRRLDLETDH [K4M] | 1.85 |
| RPVKRRLDLETDH [P1R] | 1 |
| PPVKRSLDLETDH [R6S] | -0.226 |
| PPVNRRLDLETDH [K4N] | 0.717 |
| PPVKARADLETDH [R5A L7A] | -0.381 |
